Measured values gathered from unrelated publications.
Each line is one published result; not all experiments were run side by side. Several values in a cell are separate wells, animals, samples, runs or records. ± gives the spread as reported.
UniProt Q9Y5L0, sequence (whole entry, looked up): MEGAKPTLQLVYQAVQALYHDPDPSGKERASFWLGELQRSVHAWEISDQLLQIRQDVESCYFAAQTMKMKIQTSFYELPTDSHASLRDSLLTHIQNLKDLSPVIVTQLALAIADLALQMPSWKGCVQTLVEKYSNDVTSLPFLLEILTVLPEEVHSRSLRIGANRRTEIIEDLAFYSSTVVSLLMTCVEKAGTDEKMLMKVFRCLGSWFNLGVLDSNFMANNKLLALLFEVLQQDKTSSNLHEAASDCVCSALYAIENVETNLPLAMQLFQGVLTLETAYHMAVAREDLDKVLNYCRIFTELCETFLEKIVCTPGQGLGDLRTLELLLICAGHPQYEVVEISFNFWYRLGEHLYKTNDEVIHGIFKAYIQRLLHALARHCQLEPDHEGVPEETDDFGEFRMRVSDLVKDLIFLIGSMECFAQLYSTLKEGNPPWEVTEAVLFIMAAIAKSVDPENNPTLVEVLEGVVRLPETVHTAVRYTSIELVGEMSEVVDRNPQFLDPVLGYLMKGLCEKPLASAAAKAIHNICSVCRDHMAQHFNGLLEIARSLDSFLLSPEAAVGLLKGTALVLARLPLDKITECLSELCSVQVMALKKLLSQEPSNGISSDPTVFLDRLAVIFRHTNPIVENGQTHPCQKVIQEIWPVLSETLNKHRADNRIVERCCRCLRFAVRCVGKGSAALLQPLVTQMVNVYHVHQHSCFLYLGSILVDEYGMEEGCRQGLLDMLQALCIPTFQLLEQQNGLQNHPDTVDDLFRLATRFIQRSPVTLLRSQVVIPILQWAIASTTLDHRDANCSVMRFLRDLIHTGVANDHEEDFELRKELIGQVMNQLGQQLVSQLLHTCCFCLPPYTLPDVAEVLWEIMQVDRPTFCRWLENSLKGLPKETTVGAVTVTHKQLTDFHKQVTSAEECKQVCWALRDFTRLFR

O=S(=O)(c1ccc(-c2ccc3nccc(Nc4ccncc4)c3c2)cc1)N1CCOCC1
TC50 (NIH 3T3; cytotoxicity, PrestoBlue; 96 h, 2% FBS): > 20 µM

Cc1ccc(N)cc1N
micronuclei fold increase (HepaRG; maximum tested, 24 (unit not given); reference: vehicle): 1 fold

CC(C)c1cc2c(c(O)c1O)[C@@]1(C(=O)O)CCCC(C)(C)[C@@H]1CC2
cytotoxicity (HeLa, SW480 and HCT-116; CCK-8; 80 µM, 24 h): not toxic

COc1cccc(-c2ccccc2NC(=O)C2CCN(Cc3ccccc3F)CC2)c1
maximum response (Vero-E6; CellTiter-Glo ATP; 72 h, first round 5-point; reference: DMSO 0%, hyamine -100%, more negative, more toxic): -1.68%

O=S(=O)(c1ccc(-c2ccc3nccc(Nc4ncc(Cl)cn4)c3c2)cc1)N1CCOCC1
TC50 (NIH 3T3; cytotoxicity, PrestoBlue; 96 h, 2% FBS): > 20 µM

CC(C)C[C@@H](NC(=O)[C@H](N)CCCCN)C(=O)N[C@H](CC(C)C)C(=O)N[C@H](Cc1ccccc1)C(=O)N[C@H](Cc1ccccc1)C(=O)N[C@H](C)C(N)=O
viability (NGF-differentiated PC-12 neurons; 160 µM, 24 h; reference: untreated): 91%

CN(C)N=O
micronucleated cells (HepaRG; maximum tested): 2.2%

Cc1ccc(C)c(Nc2cc(C(=O)NCCCN(C)C3CCCCC3)c3ccccc3n2)c1
cytotoxicity efficacy (Vero-E6; CellTiter-Glo ATP; concentration not given, 72 h, retest 8-point duplicates; reference: DMSO 0%, hyamine -100%, more negative, more toxic): -41.8%

C[C@H]1CN(c2n[nH]c3nc(N[C@H]4CC[C@H](NS(=O)(=O)CCC(F)(F)F)CC4)ncc23)CCO1
remaining binding (Transportin-3 (Homo sapiens, UniProt Q9Y5L0); Kinobeads competition, refers to: TNPO3; 0.16 µM, unit not given; reference: vehicle): 0.88

CC(C)C[C@@H](N)C(=O)N[C@H](CC(C)C)C(=O)N[C@H](Cc1ccccc1)C(=O)N[C@H](Cc1ccccc1)C(=O)N[C@H](C)C(=O)N[C@H](CCC(=O)O)C(N)=O
viability (NGF-differentiated PC-12 neurons; 80 µM, 24 h; reference: untreated): 95.6%

Cc1nnc(Nc2ccnc3ccc(-c4ccc(S(=O)(=O)N5CCOCC5)cc4)cc23)nc1C
TC50 (NIH 3T3; cytotoxicity, PrestoBlue; 96 h, 2% FBS): > 20 µM

CC(C)C[C@@H](N)C(=O)N1CCC[C@@H]1C(=O)N[C@H](Cc1ccccc1)C(=O)N[C@H](Cc1ccccc1)C(=O)N[C@H](C)C(=O)N[C@H](CCC(=O)O)C(N)=O
viability (NGF-differentiated PC-12 neurons; 80 µM, 24 h; reference: untreated): 95.7%

COc1ccc([C@H]2OC[C@H](Cc3ccc(C(C)(C)C)cc3)[C@@H]2CO)cc1OC
LDH release (rat aortic VSMCs; 30 µM, 24.5 h): 14.1 ± 7.1%

CN(C)c1ccc(C(Nc2nc3c(-c4ccc([N+](=O)[O-])cc4)nn(-c4ccccc4)c3s2)P(=O)(Oc2ccccc2)Oc2ccccc2)cc1 (centres unmarked)
viability (BNL mouse liver cells; SRB; 100 µM, 10% fetal bovine serum): 73%

c1ccc2c(c1)ncn2Cc1nnc2sc(-c3ccc4c(c3)OCCO4)nn12
CC50 (HEp-2; cytotoxicity): 12.6 µM

CC(C)C[C@@H](N)C(=O)N[C@H](CC(C)C)C(=O)N[C@H](Cc1ccccc1)C(=O)N[C@H](Cc1ccccc1)C(=O)N[C@H](C)C(N)=O
viability (NGF-differentiated PC-12 neurons; 20 µM, 24 h; reference: untreated): 86%

COc1ccc(Nc2nn3c(-c4ccccc4)ccnc3c2C(=O)Nc2ccc(Cl)cc2)cc1
viability (WI-38; MTT; serum-free medium; 62.50 µg/mL, 48 h): 89.8%

Cc1cc(C(C)(C)c2ccc(O)c(C)c2)ccc1O
viable cells (HepG2 spheroids, dissociated; annexin V-FITC/PI flow cytometry; 0.1 µM, 24 h): 71.4 ± 6.49%

Cc1c2ccccc2c(C)c2c1ccc1ccccc12
micronuclei fold increase (HepaRG; maximum tested, 24 (unit not given); reference: vehicle): 3.6 fold

CC(c1ccccc1)(c1ccc(O)cc1)c1ccc(O)cc1
viable cells (HepG2 spheroids, dissociated; annexin V-FITC/PI flow cytometry; 0.10 µM, 96 h): 32 ± 18.2%

CC(C)C[C@@H](N)C(=O)N1CCC[C@@H]1C(=O)N[C@H](Cc1ccccc1)C(=O)N[C@H](Cc1ccccc1)C(=O)N[C@H](C)C(N)=O
viability (NGF-differentiated PC-12 neurons; 160 µM, 24 h; reference: untreated): 99.5%

CC(C)C[C@H](NC(=O)[C@H](C)NC(=O)[C@@H](NC(=O)[C@H](CCCNC(=N)N)NC(=O)[C@H](CC(C)C)NC(=O)[C@H](Cc1c[nH]c2ccccc12)NC(=O)[C@@H]1CCCN1C(=O)[C@@H](N)CCCCN)C(C)C)C(=O)N[C@@H](CS)C(=O)N1CCC[C@H]1C(=O)NCC(=O)O
viability (A549; WST-1; 512 µM, 24 h): 109% and 98.8% and 67%

O=c1ccc2ccccc2o1
probability of response (HepG2; refers to: cell count; concentration not given, 1 h, inflammation and pH panel): 0.05%

Cc1cccc(N2CCN(C(=O)C3CCN(Cc4nc(-c5ccc(Cl)cc5)oc4C)CC3)CC2)c1C
maximum response (Vero-E6; CellTiter-Glo ATP; 72 h, first round 5-point; reference: DMSO 0%, hyamine -100%, more negative, more toxic): -2.26%

CC[C@H]1CN2CCc3cc(OC)c(OC)cc3[C@@H]2C[C@@H]1C[C@H]1NCCc2cc(OC)c(OC)cc21
selectivity index (differentiated THP-1; 72 h; reference: THP-1 CC50 over EC50): 8

Oc1ccc(C(c2ccc(O)cc2)(C(F)(F)F)C(F)(F)F)cc1
late apoptotic cells (HepG2 spheroids, dissociated; annexin V-FITC/PI flow cytometry; 10 µM, 96 h): 30.5 ± 4.6%

CCN(CC)CCNC(=O)c1cc(-c2ccc(Br)s2)nc2ccccc12
cytotoxicity efficacy (Vero-E6; CellTiter-Glo ATP; concentration not given, 72 h, retest 8-point duplicates; reference: DMSO 0%, hyamine -100%, more negative, more toxic): -86.5%

CC[C@H](C)[C@H](NC(=O)[C@H](Cc1ccccc1)NC(=O)[C@H](CCC(=O)O)NC(=O)[C@H](CCCNC(=N)N)NC(=O)[C@H](C)NC(=O)[C@H](C)NC(=O)[C@H](CCC(N)=O)NC(=O)[C@H](CCC(=O)O)NC(=O)[C@H](CCC(=O)O)NC(=O)[C@H](CC(C)C)NC(=O)[C@H](Cc1ccc(O)cc1)NC(=O)[C@H](CO)NC(=O)[C@H](CO)NC(=O)[C@@H](NC(=O)[C@H](CC(=O)O)NC(=O)[C@H](CO)NC(=O)[C@@H](NC(=O)[C@H](Cc1ccccc1)NC(=O)[C@@H](NC(=O)CNC(=O)[C@H](CCC(=O)O)NC(=O)[C@H](C)NC(=O)CCc1c[nH]cn1)[C@@H](C)O)[C@@H](C)O)C(C)C)C(=O)N[C@@H](C)C(=O)N[C@@H](Cc1c[nH]c2ccccc12)C(=O)N[C@@H](CC(C)C)C(=O)N[C@H](C(=O)N[C@@H](CCCNC(=N)N)C(=O)NCC(=O)N[C@@H](CCCNC(=N)N)C(=O)N[C@@H](CCCCNC(=O)COCCOCCNC(=O)COCCOCCNC(=O)CC[C@H](NC(=O)CCCCCCCCCCCCCCCCC(=O)O)C(=O)O)C(=O)NCC(=O)NCC(=O)N[C@@H](CO)C(=O)N[C@@H](CCCCNc1c(NCCCCCN(O)C(=O)CCC(=O)NCCCCCN(O)C(=O)CCC(=O)NCCCCCN(O)C(C)=O)c(=O)c1=O)C(=O)O)C(C)C [zirconium-89 labelled]
tissue uptake (ex vivo gamma counting; rat, lung; subcutaneous, 3 nmol/kg, 4 h, with: [89Zr]-labelled peptide): 1.02 %ID/g

Cc1ccc2[nH]c3c(c2c1)CCCC3NCCc1ccc(Br)cc1 (centres unmarked)
non-viable cells (A549; 50 µM, 23 h): 28.4 ± 24.5%

COc1ccccc1-c1ccc(CN2CCCC(c3nc4ccc(C)cc4c(=O)[nH]3)C2)cc1 (centres unmarked)
cytotoxicity efficacy (Vero-E6; CellTiter-Glo ATP; concentration not given, 72 h, first round 5-point; reference: DMSO 0%, hyamine -100%, more negative, more toxic): -32.7%

CC(C)C[C@@H](N)C(=O)N[C@H](Cc1ccccc1)C(=O)N[C@H](Cc1ccccc1)C(=O)N[C@H](C)C(N)=O
viability (NGF-differentiated PC-12 neurons; 40 µM, 24 h; reference: untreated): 90.2%

COc1ccc(Nc2nc(Nc3ccc(OC)cc3OC)nc(N3CCOCC3)n2)c(OC)c1
maximum response (Vero-E6; CellTiter-Glo ATP; 72 h, second round 5-point; reference: DMSO 0%, hyamine -100%, more negative, more toxic): -12.9%

CN(CCC=C1c2ccccc2CCc2ccccc21)N=O
relative survival (TK6; 1.25 µM, 4 h, with: hamster liver S9; reference: vehicle): 103%

CC(C)C[C@@H](NC(=O)[C@H](N)CCCCN)C(=O)N[C@@H](C(=O)N[C@H](Cc1ccccc1)C(=O)N[C@H](Cc1ccccc1)C(N)=O)C(C)C
viability (NGF-differentiated PC-12 neurons; 5 µM, 24 h; reference: untreated): 100%

CCc1ccc(Sc2cc(C(=O)NCCCN3CCC(C)CC3)c3ccccc3n2)cc1
maximum response (Vero-E6; CellTiter-Glo ATP; 72 h, retest 8-point duplicates; reference: DMSO 0%, hyamine -100%, more negative, more toxic): -31.6%

COc1cc(-c2nn3c(Cn4nnc5ccccc54)nnc3s2)cc(OC)c1OC
CC50 (HEp-2; cytotoxicity): > 100 µM

CN1CCCN(S(=O)(=O)c2ccc(-c3ccc4c(Nc5ccc(OCc6cccc(F)c6)c(Cl)c5)ccnc4c3)cc2)CC1
TC50 (NIH 3T3; PrestoBlue; 2% FBS medium; 96 h): 11 µM

COc1cc2c(Oc3ccc4[nH]c(C)cc4c3F)ccnc2cc1OCC1(N)CC1
incidence of adverse event (refers to: grade 3 blurred vision; paediatric high-risk refractory sarcoma; 8 mg): 0%

CC(C)C[C@@H](NC(=O)[C@H](N)CCCCN)C(=O)N1CCC[C@@H]1C(=O)N[C@H](Cc1ccccc1)C(=O)N[C@H](Cc1ccccc1)C(N)=O
viability (NGF-differentiated PC-12 neurons; 5 µM, 24 h; reference: untreated): 100%

CCN1CCN(c2cc(C)c3cc(NC(=O)c4cccc(Cl)c4)ccc3n2)CC1
maximum response (Vero-E6; CellTiter-Glo ATP; 72 h, first round 5-point; reference: DMSO 0%, hyamine -100%, more negative, more toxic): -0.887%

COc1ccc([C@@H]2CC(=O)c3c(O)cc(O[C@@H]4O[C@H](CO[C@@H]5O[C@@H](C)[C@H](O)[C@@H](O)[C@H]5O)[C@@H](O)[C@H](O)[C@H]4O)cc3O2)cc1O
CYP1A1 induction (BEAS-2B; fluorogenic substrate; 10 µM, 24 h; reference: control): 1.6 fold
